Experimental data from different studies.
Each numbered part is a random draw from the data of one study; scales do not carry over between parts. Positions count from the first letter of the parent shown.

Sample 1
Target: RNA binding protein fox-1 homolog 2, RRM domain, GST-SBP tag (RBFOX2, Homo sapiens, UniProt O43251-10, residues 100-194)
Method: RNA Bind-n-Seq
Form: RNA
Sample: in vitro
Tested at: 365 nM
Notes: natural RNA segment, single round, ends assumed
Baseline: no-protein control
Reading: higher = stronger binding
Measurement: RBNS enrichment (R)
Constant ends, left off below: GGGAGUUCUACAGUCCGACGAUC … UGGAAUUCUCGGGUGCCAA
Sequence = UCCCAGUAGGCUUUUACCAUUAGCAUAAUUUUGUGUUGUACAAUUAAGUUACAAUUACAUCUCUAAUUUUGGAUAAUAUUCAUUGGUUAACAAUAAAGUGACAAAAGCUC; value = 0.602
Sequence = AAUUGUACCACCAUCCCCCGCUGCUCACCAAACAUGGGCGUACUGGAAGGCUGUUAUACUCAGUGCCCGCCUUUGACCUAAAGCUGGCCAGCAUCCCUGGGGAAACCUGA; value = 0.429
Sequence = CUUAGAUUGGGUUUAUAACUAUUAGGAAUCACUGCACAGUUUAUUUGGGUUGUGUUUUGUGUCUGAGUCCCCUCCCUCAUCCCUUAGGGUCCAGAAGAGCAAUGGAGGAA; value = 0.435
Sequence = GGGAAAUUGAUUAAAGGGGCUGUCUCCCAAUGAAAGAGGCAUUCCCAGAAUUUGCUGCAUUUAGAUUUUGAUACCAGUGAGCAGAGCCCUCAUGUGACAUGAACCCAUCC; value = 1.25
Sequence = GUGGCCUCUCUGUGUGCCCACAUGAUGCAAAGGGGUCAUGUACUAUGCCCUGGACAAAGAAGUAUGUUUUGCCUAUGUCCCCAUACCAGGACCUUCUUUCAGAACGAGGG; value = 0.738
Sequence = AGGUGCUGCUUUGUAUAUCAAAAGCUCCAACCAUGUCCUCUCCCCCUCAGCCUGUGGGUGGCACGAGCAAGGACUGACAUCCGCACAGGGAGGAUUGUCUGUUUGGCUGA; value = 0.401
Sequence = UUGUUAAUUAUGGCUUUUACUUCAUUUUAGAAAAGCACUAGAAAUUCUAAAUUUACUUUUCCUCUAGACCACACUUAAUGCCUGCCUUGAAGACAUUACAGAAAUGAAGG; value = 0.426

Sample 2
Target: ABI1, truncated, D143A, DHFR fusion (Arabidopsis thaliana)
Method: DHFR PCA, deep sequencing
Sample: yeast
Notes: methotrexate growth selection, single substitutions
With: (+)-ABA 0.032 µM
Baseline: wild-type fitted maximum
Reading: higher = stronger binding
Measurement: relative binding score
Parent: PYL1, truncated, DHFR fusion (Arabidopsis thaliana); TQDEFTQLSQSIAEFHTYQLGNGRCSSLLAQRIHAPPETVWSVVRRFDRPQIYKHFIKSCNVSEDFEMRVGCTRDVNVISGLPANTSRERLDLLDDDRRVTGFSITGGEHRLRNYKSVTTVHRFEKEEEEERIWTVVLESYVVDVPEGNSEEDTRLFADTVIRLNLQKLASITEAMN; partner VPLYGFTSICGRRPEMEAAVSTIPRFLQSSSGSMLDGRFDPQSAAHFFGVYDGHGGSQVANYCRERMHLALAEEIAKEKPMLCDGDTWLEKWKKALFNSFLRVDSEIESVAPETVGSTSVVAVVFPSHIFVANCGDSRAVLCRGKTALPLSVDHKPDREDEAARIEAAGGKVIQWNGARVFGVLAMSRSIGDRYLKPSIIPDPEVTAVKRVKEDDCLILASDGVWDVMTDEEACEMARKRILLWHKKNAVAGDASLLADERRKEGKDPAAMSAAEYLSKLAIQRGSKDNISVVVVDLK
Change = Q2I; value = 69.5%
Change = L93H; value = 3.07%
Change = E109M; value = 0.366%
Change = R132T; value = 42.7%
Change = R46G; value = -0.809%
Change = P36E; value = 9.3%
Change = D144F; value = -19.3%

Sample 3
Target: Centromere-binding protein 1, full length, N-terminal tag (CBF1, Saccharomyces cerevisiae, UniProt P17106, residues 1-351)
Chain of UniProt P17106 (whole entry, looked up): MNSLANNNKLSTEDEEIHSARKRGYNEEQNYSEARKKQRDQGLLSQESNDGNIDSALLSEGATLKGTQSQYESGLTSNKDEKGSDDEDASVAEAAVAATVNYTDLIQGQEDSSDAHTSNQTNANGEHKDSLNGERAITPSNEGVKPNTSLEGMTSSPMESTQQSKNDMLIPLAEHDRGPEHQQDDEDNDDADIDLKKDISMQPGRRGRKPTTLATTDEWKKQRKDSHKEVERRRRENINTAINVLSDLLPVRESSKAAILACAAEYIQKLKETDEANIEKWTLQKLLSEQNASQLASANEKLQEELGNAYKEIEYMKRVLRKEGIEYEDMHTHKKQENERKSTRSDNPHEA
Method: protein-binding microarray
Form: double-stranded DNA, one strand shown
Sample: in vitro
Tested at: 0.8 µM
Notes: whole 60-bp probe, no competitor
Reading: higher = stronger binding
Measurement: fluorescence intensity
Constant ends, left off below: … GTCTTGATTCGCTTGACGCTGCTG
Sequence = GAACCTTCCTTTTTATTCGTGATGTTGAGTAAGTAG; value = 562 a.u.
Sequence = GAACAGATGGGATGACATGTGAAAAGTGTAACATAG; value = 639 a.u.
Sequence = GAAGAAAAGCGAAAACAGGTGATAATAATGATGTAG; value = 716 a.u.
Sequence = GAAGCAAGAAAACGTCACATTTTATGGAGAGGCTAG; value = 572 a.u.
Sequence = GAATCCTATCTTTATCTCACCTGTTTGAGGGAATAG; value = 550 a.u.
Sequence = CTACACCACATCAACAGGTGAACTCAAAATTACTTC; value = 526 a.u.
Sequence = GAACACGACGAACGTGATGCCCGCAAAACGTAATAG; value = 856 a.u.
Sequence = CTAAAAGACATATAAAACGTGTATTAGATAGAATTC; value = 542 a.u.
Sequence = CCTAACTACTATACAAATGTGTCATAGCTTCGTACA; value = 530 a.u.

Other studies, line by line
Molecule = PhoQ, residues 284 288 289 292 302 303 ASASEQ; target = PhoP, residues 12 14 15 18 19 LYFRQ (Escherichia coli, UniProt P23836); test = Sort-seq, measured: YFP reporter; test system = E. coli; conditions = PhoQ-PhoP variant library, with: 10 µM Mg2+; scale = baseline: high Mg2+ state, higher = stronger signaling; measurement = fold induction; value = 28.7

Some of these lines once more (sample 3):
Sequence = GAATCCTATCTTTATCTCACCTGTTTGAGGGAATAG; value = 550 a.u.
